Assay results pooled from the literature.
Each line is one published result; not all experiments were run side by side. ± gives the spread as reported.

`CCOc1cc(Oc2ccc(C(F)(F)F)cc2Cl)ccc1[N+](=O)[O-]` — result for “body weight gain”: 67% (rat male; 3.25 mg/kg, 8 days).
The leukocyte differential of `O=C(O)CCCOc1ccc(F)cc1-c1cc(-c2ccccc2C(F)(F)F)n(-c2ccccc2)n1` is reported as 2 ± 0.5% (item: Monocytes; Crl:CD(SD) rats, female, blood; iv, 25 µg/kg, 1 day).
`c1cc(-c2ccc3ncnc(Nc4ncco4)c3c2)cc(N2C[C@H]3C[C@@H]2CO3)c1` has a CLint of 47 µL/min/mg (human liver microsomes).
`C[C@@H](NC(=O)N1C(=O)[C@H](Cc2ccnc(N)c2)[C@H]1C(=O)O)C1CCCCC1`: “incidence of mild AEs” 12.5% (healthy adult Chinese volunteers; continuous intravenous infusion, 1.5 mg/kg/h, 5-day infusion, CTCAE 5.0 grading).
Under “patients with Pruritus TEAE”, `C[C@]1(O)C[C@@](N)(c2ccc(-c3nc4n(c3-c3ccccc3)COc3ccncc3-4)cc2)C1` is recorded as 0% (human, advanced or metastatic solid tumours; 16 mg once daily, dose-response cohort).
With `Clc1ccc(-c2cc(Cl)c(Cl)c(Cl)c2Cl)cc1Cl` the log K(PDMS-water) was 6.17 ± 0.11 (fresh water; 20 °C, SSP sampler, 100 µm).
`COc1cc2c(Oc3ccc4[nH]c(C)cc4c3F)ccnc2cc1OCC1(N)CC1`: “blurred vision incidence” 9.1% (paediatric refractory sarcoma patients; 12 mg).
Under “adverse event duration”, `CC(=O)N(C)[C@H]1CCN(C(=O)c2cnc3c(c2)C[C@](C)(c2ccc(F)cc2)N3)C1` is recorded as 2 days (item: decreased appetite; human; oral, dose not given, with: midazolam).
`CO[C@H]1C[C@@H]2CC[C@@H](C)[C@@](O)(O2)C(=O)C(=O)N2CCCC[C@H]2C(=O)O[C@H]([C@H](C)C[C@@H]2CC[C@@H](OC(=O)NCCOCCOCCOCCOCCOCCOCCOCCOCCC(=O)N3CCc4cc(Cn5nc(-c6ccc7oc(N)nc7c6)c6c(N)ncnc65)ccc4C3)[C@H](OC)C2)C[C@@H](O)[C@H](C)/C=C(\C)[C@@H](O)[C@@H](OC)C(=O)[C@H](C)C[C@H](C)/C=C/C=C/C=C/1C` has an anaemia incidence of 0% (patients with advanced solid tumours; intravenous, 10 mg weekly, any grade).
`CC(C)CC(=O)OC[C@H]1O[C@@](C#N)(c2ccc3c(N)ncnn23)[C@H](O)[C@@H]1O`: “recovery in urine” 0.00199% (Sprague-Dawley rat, both sexes, urine; 80 mg/kg, time not given; reference: dose).
`C[C@]1(CO)Cc2ncn(-c3ccc(C#N)c(Cl)c3)c2C(=O)O1` has an AUC(0-inf) of 28.3 µM·h (healthy Japanese adults, plasma; 80 mg once daily, after first dose, multiple dose).
With `CN1CCN(c2ccc(Nc3nccc(-c4ccc(F)cc4)n3)cc2C(F)(F)F)CC1` the toxicity was 0% (zebrafish embryos; 50 µM, 5 d).
`C=CC(=O)Nc1cc(Nc2nccc(Nc3cc(Cl)c(F)cc3C(C)(C)O)n2)c(OC)cc1N1CC[C@@H](N(C)C)C1`: “patients with hypokalaemia” 0% (human patients; oral, 200 mg, treatment-emergent adverse events).
`COc1ccnc(C(=O)N[C@H]2COC(=O)[C@H](Cc3ccccc3)[C@@H](OC(=O)C(C)C)[C@H](C)OC2=O)c1OCOC(=O)C(C)C` has a DT50 of 1.4 days (aerobic dark soil incubation; sandy loam soil; 20 °C, persistence endpoint).
The log K(PDMS-water) of `c1ccc2c(c1)c1cccc3ccc4cccc2c4c31` is reported as 5.16 ± 0.03 (fresh water; 12 (unit not given), 20 °C, S30-2 sampler, 30 µm).
With `Cc1c(C(=O)O)ccc2c3n(nc12)[C@@H]1[C@H](C3)N(CC2CC2)[C@@]2(C(=O)Nc3cc(Cl)ccc32)[C@H]1c1cccc(Cl)c1F` the tumor concentration was 263 nmol/L (athymic nude mouse, orthotopic tumor, orthotopic brain tumor; 10 mg/kg, 24 h, single dose).
`CC(C)[C@@H]1NC(=O)CNC(=O)[C@H](CC(N)=O)NC(=O)[C@H](CCCNC(=N)N)NC(=O)[C@H](Cc2ccc(O)cc2)NC(=O)[C@H](C(C)C)NC(=O)[C@@H](NC(=O)[C@@H](NC(=O)[C@H](CC(N)=O)NC(=O)[C@H](Cc2c[nH]c3ccccc23)NC(=O)[C@H](C)NC(=O)[C@H](Cc2ccccc2)NC(=O)CN)C(C)C)CSSC[C@@H](C(=O)N[C@@H](Cc2c[nH]cn2)C(=O)N[C@@H](CCCNC(=N)N)C(=O)N[C@@H](CCCNC(=N)N)C(=O)N[C@@H](C)C(=O)N[C@@H](CC(N)=O)C(N)=O)NC(=O)[C@H](C(C)C)NC(=O)[C@H](CCCNC(=N)N)NC1=O` — result for “secondary structure content”: 21.2% (circular dichroism, item: β-Turn; PBS; 80 µM, pH 7.4, with: LTA 1 µM).
`Cc1ncnc2c1ccn2[C@@H]1C[C@H](Oc2cc(C(F)F)c(F)c3c2CNCC3)[C@@H](O)[C@H]1O` gave a Nausea incidence of 0% (patients; grade ≥3; reference: patients).
`COC(=O)C1=CCCN(C)C1`: “complete blood count” “no effect” (nude mice; intraperitoneal, up to 50 mg/kg/day, 4 weeks; reference: vehicle).
`N=c1c2c(-c3ccccc3)c(-c3ccccc3)n(Cc3ccccc3)c2ncn1[C@H]1CC[C@H](O)CC1` gave an AUC(0-t)/AUC(0-inf) ratio of < 60% (Gottingen minipig, female, plasma).
`COc1cccc2c1CCCC2CCCN1CCN(C2CCCCC2)CC1` (stereo not shown) — result for “elimination rate constant”: 8.92e-05 s⁻¹ (CD-1 mouse, male, lung; intraperitoneal, 3 mg/kg).
For `O=C(O)CCC(CP(=O)(O)O)C(=O)O` (stereo not shown), the measured concentration was 0.349 ± 0.005 µg/mL (rat plasma; 0.3 µg/mL, -80 °C, freeze-thaw cycle 1).
`Clc1cc(Cl)cc(-c2cc(Cl)ccc2Cl)c1` gave a log K(PDMS-water) of 5.69 ± 0.04 (fresh water; 20 °C, S100 sampler, 100 µm).
`CC(C)[C@@H]1NC(=O)[C@@H]2CSSC[C@@H]3NC(=O)[C@H]([C@@H](C)O)NC(=O)[C@@H]4CSSC[C@H](NC(=O)[C@H](C(C)C)NC(=O)[C@@H]5CCCN5C(=O)[C@H](CCCCN)NC(=O)CNC(=O)[C@H](CC(N)=O)NC(=O)[C@H](CCCNC(=N)N)NC(=O)[C@H]([C@@H](C)O)NC(=O)[C@H](CSSC[C@H](NC(=O)[C@H]([C@@H](C)O)NC(=O)CNC(=O)CNC1=O)C(=O)N[C@@H](CC(N)=O)C(=O)N[C@@H]([C@@H](C)O)C(=O)N1CCC[C@H]1C(=O)NCC(=O)N4)NC(=O)[C@H](C(C)C)NC(=O)[C@@H]1CCCN1C(=O)[C@H](Cc1c[nH]c4ccccc14)NC(=O)[C@H](CO)NC3=O)C(=O)NCC(=O)N[C@@H](CCC(=O)O)C(=O)N[C@@H]([C@@H](C)O)C(=O)N2` has a remaining peptide of 92.8 ± 5.1% (HPLC; ammonium bicarbonate; 180 µM, 7 days, pH 9.0, 25 °C, deamidation stability).
`O=C1Nc2cc3[nH]nc(-c4ccncc4)c3cc2CN1Cc1ccccc1`: “patients with acneiform dermatitis” 33% (CTCAE v4.03; advanced solid tumour patients; intravenous, 7.2 mg/kg).
For `NCCCC[C@@H]1NC(=O)[C@@H](Cc2c[nH]c3ccccc23)NC(=O)[C@H](c2ccccc2)NC(=O)[C@@H]2C[C@@H](OC(=O)NCCN)CN2C(=O)[C@H](Cc2ccccc2)NC(=O)[C@H](Cc2ccc(OCc3ccccc3)cc2)NC1=O`, “placebo-corrected QTcF change” read 6.2 ms (healthy volunteers, female; 1950 µg twice daily, 1.0 h, post hoc).
`Cc1ccccc1C(=O)NN=Cc1ccc(O)c(Br)c1` gave an AUC(0-t) of 326 ng·h/mL (C3H/HeN mouse IN model, plasma; intraperitoneal, 1.6 mg/kg).
`N=C(N)NCCC[C@@H](NC(=O)[C@@H](N)Cc1ccccc1)C(=O)N[C@@H](Cc1ccccc1)C(=O)N[C@@H](CCCCN)C(N)=O`: “median amount excreted in urine” 274000 ng (LC-MS; human; 5 mg, 11.83 h).

Excerpt of the above:
`C[C@@H](NC(=O)N1C(=O)[C@H](Cc2ccnc(N)c2)[C@H]1C(=O)O)C1CCCCC1`: “incidence of mild AEs” 12.5% (healthy adult Chinese volunteers; continuous intravenous infusion, 1.5 mg/kg/h, 5-day infusion, CTCAE 5.0 grading).
Under “patients with Pruritus TEAE”, `C[C@]1(O)C[C@@](N)(c2ccc(-c3nc4n(c3-c3ccccc3)COc3ccncc3-4)cc2)C1` is recorded as 0% (human, advanced or metastatic solid tumours; 16 mg once daily, dose-response cohort).
